Results pooled from the literature.
Values joined by “and” are separate records of one study, mostly repeats; a detail may differ. Numbers after ± are the reported error.

Cc1ccc2nc(C)c(C(=O)C(=O)N(C)C)n2c1 — MIC (Mycobacterium tuberculosis variant bovis BCG; microbial growth; BCG; 6 days): > 128 µM
CCc1nc2ccc(Br)cn2c1C(=O)NCc1ccc2oc(-c3ccc(Cl)cc3)nc2c1 — MIC (Mycolicibacterium smegmatis; 72 h): > 50 µM
CN[C@@H]1[C@H](O)[C@H](NC)[C@H]2O[C@]3(O)[C@H](O[C@@H]2[C@H]1O)O[C@H](C)C[C@H]3NC(=O)Cc1cc(Cl)ccn1 — MIC (Mycobacterium ulcerans; ATCC 35840): 0.4 µg/mL
CCc1nc2cc(C(F)(F)F)ccn2c1C(=O)NCc1ccc2oc(-c3ccc(OC(F)(F)F)cc3)nc2c1 — MIC (Mycolicibacterium smegmatis; 72 h): > 50 µM
COc1c(Br)cc(CCNC2=CC3=NCCc4c[nH]c(c43)C2=O)cc1Br — IC50 (Babesia duncani; parasite growth, SYBR Green; 60 h, blood stage): 1820 nM
Cc1ccc(CNC(=O)C(=O)c2c(C)nc3ccc(C)cn23)cc1 — inhibition zone (Mycolicibacterium smegmatis; microbial growth; MC2155; 2 mM, 20 h): 0 mm
Cc1nc2cc(C(F)(F)F)ccn2c1C(=O)NCc1ccc2oc(-c3ccc(OC(F)(F)F)cc3)nc2c1 — MIC90 (Mycolicibacterium smegmatis): > 100 µM
Cc1ccc(S(=O)(=O)n2cc3c4c2C(=O)C(N)=CC4=NCC3)cc1 — IC50 (Babesia duncani; parasite growth, SYBR Green; 60 h, blood stage): 1150 nM
Fc1ccc(-c2ccc(Cn3ccnc3)c(F)c2)cc1F — MIC50 (Mycobacterium tuberculosis variant bovis BCG; microbial growth; BCG): 2.7 µM
Cc1nc2cc(Br)ccn2c1C(=O)NCc1ccc2oc(-c3ccc(Cl)cc3)nc2c1 — MIC (Mycolicibacterium smegmatis; 72 h): > 100 µM
Fc1ccc(-c2ccc(Cn3ccnc3)c(F)c2)c(F)c1 — MIC50 (Mycobacterium tuberculosis variant bovis BCG; microbial growth; BCG): 3.4 µM
C[N+]1=C2C=C(NCCc3c[nH]c4ccccc34)C(=O)c3[nH]cc(c32)CC1 — IC50 (Babesia duncani; parasite growth, SYBR Green; 60 h, blood stage): 30.1 nM
Cc1nc2ccc(OC(F)(F)F)cn2c1C(=O)NCc1ccc2oc(-c3ccc(OC(F)(F)F)cc3)nc2c1 — MIC (Mycolicibacterium smegmatis; 72 h): > 50 µM
CSc1ccc(-c2ccc(Cn3ccnc3)cc2)s1 — MIC50 (Mycobacterium tuberculosis variant bovis BCG; microbial growth; BCG): 3.2 µM
CCc1nc2ccc(C(F)(F)F)cn2c1C(=O)NCc1ccc2oc(-c3ccc(OC(F)(F)F)cc3)nc2c1 — MIC (Mycolicibacterium smegmatis; 72 h): > 100 µM
Cc1cc(Oc2nc(N3CC[C@@H](c4ccncc4)C3)ncc2F)[nH]n1 — normalised growth (Mycobacterium tuberculosis; OD; H37Rv PurF CRISPRi knockdown; 7e-06 µM, with: anhydrotetracycline low): 99% and 101% and 98%
O=C1NC2(CC2)COc2ncc(F)cc2[C@H]2COCCN2c2ccn3ncc1c3n2 — mean corpuscular haemoglobin concentration (Sprague-Dawley rat, female, blood; oral, 2.5 mg/kg/day, 4 weeks, end of treatment, subacute toxicity): 312 ± 5 g/L
CCc1nc2ccc(OC(F)(F)F)cn2c1C(=O)NCc1ccc2oc(-c3ccc(OC(F)(F)F)cc3)nc2c1 — MIC90 (Mycolicibacterium smegmatis): > 100 µM
O=C1C(NCCc2cc(Br)c(O)c(Br)c2)=CC2=NCCc3c[nH]c1c32 — IC50 (Babesia duncani; parasite growth, SYBR Green; 60 h, blood stage): 6820 nM
C=CC(c1ccc(-c2ccc(OC)c(F)c2)cc1)n1ccnc1 (centres unmarked) — MIC50 (Mycobacterium tuberculosis variant bovis BCG; microbial growth; BCG): 14.5 µM
Nc1ccccc1C(=O)OCC#CCOC(=O)c1ccccc1N — MIC50 (Aspergillus fumigatus; microbial growth, broth dilution; MF5668): 2 µg/mL
CN[C@@H]1[C@H](O)[C@H](NC)[C@H]2O[C@]3(O)[C@H](O[C@@H]2[C@H]1O)O[C@H](C)C[C@H]3NC(=O)Cc1ccccn1 — MIC (Mycobacterium ulcerans; ATCC 35840): 1.6 to 3.1 µg/mL
CC(C)CC(C(=O)N1CC2(CC1C#N)C(=O)Nc1ccccc12)N(C)C(=O)c1cc2c(F)cc(F)c(F)c2[nH]1 (centres unmarked) — inhibition (Human coronavirus 229E; cytopathic effect; MRC5; 1.393 nM): 20.7%
O=C1C(NCCc2ccc(O)c(Br)c2)=CC2=NCCc3c[nH]c1c32 — IC50 (Babesia duncani; parasite growth, SYBR Green; 60 h, blood stage): 834 nM
CN[C@@H]1[C@H](O)[C@H](NC)[C@H]2O[C@]3(O)[C@H](O[C@@H]2[C@H]1O)O[C@H](C)C[C@H]3NC(=O)Cc1ccc(F)cn1 — MIC (Mycobacterium tuberculosis variant bovis BCG; microbial growth; BCG): 0.8 µg/mL
C(=C\c1ccc(-c2ccccc2)cc1)/Cn1ccnc1 — MIC50 (Mycobacterium tuberculosis variant bovis BCG; microbial growth; BCG): 1.8 µM
Cc1nc2cc(OC(F)(F)F)ccn2c1C(=O)NCc1ccc2oc(-c3ccc(Cl)cc3)nc2c1 — MIC90 (Mycolicibacterium smegmatis): > 100 µM
FC(F)(F)c1ccc(-c2ccc(Cn3ccnc3)cc2)cc1 — MIC50 (Mycobacterium tuberculosis variant bovis BCG; microbial growth; BCG): 2.4 µM
CN[C@@H]1[C@H](O)[C@H](NC)[C@H]2O[C@]3(O)[C@H](O[C@@H]2[C@H]1O)O[C@H](C)C[C@H]3NC(=O)Cc1ccc(Cl)cn1 — MIC (Mycobacterium tuberculosis variant bovis BCG; microbial growth; BCG): 0.8 µg/mL

Repeated from above:
C[N+]1=C2C=C(NCCc3c[nH]c4ccccc34)C(=O)c3[nH]cc(c32)CC1 — IC50 (Babesia duncani; parasite growth, SYBR Green; 60 h, blood stage): 30.1 nM
Fc1ccc(-c2ccc(Cn3ccnc3)c(F)c2)c(F)c1 — MIC50 (Mycobacterium tuberculosis variant bovis BCG; microbial growth; BCG): 3.4 µM
